# Results collected from several papers.
# Compare with care: the assays were run in different laboratories. Values joined by “and” are separate records of one study, mostly repeats; a detail may differ. ± gives the spread as reported.
# B1: human DDX3X; sequence looked up; chain SHVAVENALGLDQQFAGLDLNSSDNQSGGSTASKGRYIPPHLRNREATKGFYDKDSSGWSSSKDKDAYSSFGSRSDSRGKSSFFSDRGSGSRGRFDDRGRSDYDGIGSRGDRSGFGKFERGGNSRWCDKSDEDDWSKPLPPSERLEQELFSGGNTGINFEKYDDIPVEATGNNCPPHIESFSDVEMGEIIMGNIELTRYTRPTPVQKHAIPIIKEKRDLMACAQTGSGKTAAFLLPILSQIYSDGPGEALRAMKENGRYGRRKQYPISLVLAPTRELAVQIYEEARKFSYRSRVRPCVVYGGADIGQQIRDLERGCHLLVATPGRLVDMMERGKIGLDFCKYLVLDEADRMLDMGFEPQIRRIVEQDTMPPKGVRHTMMFSATFPKEIQMLARDFLDEYIFLAVGRVGSTSENITQKVVWVEESDKRSFLLDLLNATGKDSLTLVFVETKKGADSLEDFLYHEGYACTSIHGDRSQRDREEALHQFRSGKSPILVATAVAARGLDISNVKHVINFDLPSDIEEYVHRIGRTGRVGNLGLATSFFNERNINITKDLLDLLVEAKQEVPSWLENMAYEHHYKGSSRGRSKSSRFSGGFGARDYRQSSGASSSSFSSSRASSSRSGGGGHGSSRGFGGGGYGGFYNSDGYGGNYNSQGVDWWGN
# B2: human histone acetyltransferase 1; sequence looked up; chain AGFGAMEKFLVEYKSAVEKKLAEYKCNTNTAIELKLVRFPEDLENDIRTFFPEYTHQLFGDDETAFGYKGLKILLYYIAGSLSTMFRVEYASKVDENFDCVEADDVEGKIRQIIPPGFCTNTNDFLSLLEKEVDFKPFGTLLHTYSVLSPTGGENFTFQIYKADMTCRGFREYHERLQTFLMWFIETASFIDVDDERWHYFLVFEKYNKDGATLFATVGYMTVYNYYVYPDKTRPRVSQMLILTPFQGQGHGAQLLETVHRYYTEFPTVLDITAEDPSKSYVKLRDFVLVKLCQDLPCFSREKLMQGFNEDMVIEAQQKFKINKQHARRVYEILRLLVTDMSDAEQYRSYRLDIKRRLISPYKKKQRDLAKMRKCLRPEELTNQMNQIEISMQHEQLEESFQELVEDYRRVIERLAQE
# B3: human PHGDH; sequence looked up; chain AFANLRKVLISDSLDPCCRKILQDGGLQVVEKQNLSKEELIAELQDCEGLIVRSATKVTADVINAAEKLQVVGRAGTGVDNVDLEAATRKGILVMNTPNGNSLSAAELTCGMIMCLARQIPQATASMKDGKWERKKFMGTELNGKTLGILGLGRIGREVATRMQSFGMKTIGYDPIISPEVSASFGVQQLPLEEIWPLCDFITVHTPLLPSTTGLLNDNTFAQCKKGVRVVNCARGGIVDEGALLRALQSGQCAGAALDVFTEEPPRDRALVDHENVISCPHLGASTKEAQSRCGEEIAVQFVDMVKGKSLTGVVNAQALTSAFSPHTKPWIGLAEALGTLMRAWAGSPKGTIQVITQGTSLKNAGNCLSPAVIVGLLKEASKQADVNLVNAKLLVKEAGLNVTTSHSPAAPGEQGFGECLLAVALAGAPYQAVGLVQGTTPVLQGLNGAVFRPEVPLRRDLPLLLFRTQTSDPAMLPTMIGLLAEAGVRLLSYQTSLVSDGETWHVMGISSLLPSLEAWKQHVTEAFQFHF
Substance,tested on,test,system,setting,scale,endpoint,value
B1 (human DDX3X),CYB5R4 knockout human cells,"PP4 interaction, 3xFLAG-PP4C IP-MS",,concentration not given,baseline: CYB5R4 KO over parental,log2 fold change,-0.81
colistin,Pseudomonas aeruginosa,,clinical isolate RKI 82/10,,,MIC,≤ 1 µg/mL
SVWLRKETRV,"construct, MBP fusion, human SCRIB, PDZ 3-4",automated holdup,"peptide, purified PDZ protein","concentration not given, unit not given","baseline: biotin control resin, higher = stronger binding",binding intensity,0.403
difelikefalin,,,Japanese haemodialysis patients with pruritus,"intravenous, 0.25 µg/kg, 8 weeks",,PGIC much worse,0%
human ME2 Q101T,,"enzyme activity, activator, NADH absorbance",recombinant enzyme,"range over 0 to 5 mM, pH 7.4",baseline: wild type,activation fold,1
QDEKVKESYV,"construct, MBP fusion, human SCRIB, PDZ 3-4",automated holdup,"peptide, purified PDZ protein","concentration not given, unit not given","baseline: biotin control resin, higher = stronger binding",binding intensity,0.376
B2,PP6C (human),"co-immunoprecipitation, IP-MS",CYB5R4 knockout cells,concentration not given,baseline: CYB5R4 knockout over parental,log2 fold change,-0.91
milbemycin oxime,Saccharomyces cerevisiae,cell growth,"Pdr5 deleted, Cdr1 overexpressed","2^-8.966 µg/mL, together with: fluconazole 10 µg/mL",,OD600,1.05 and 1.11 and 1.02
cotadutide,,"metabolomics, refers to: hepatic phenylalanine","ob/ob mice on AMLN diet, NASH model, liver",dose not given,,metabolite level,1.06 ± 0.04 scaled intensity
human ME2 Q51H,,"enzyme activity, NADH absorbance",,"without fumarate, together with: L-malate varied",,Hill coefficient,1.65 ± 0.1
PSMC1 (human),CYB5R4 knockout human cells,"PP6 interaction, 3xFLAG-PP6C IP-MS",,concentration not given,baseline: CYB5R4 KO over parental,log2 fold change,2.06
QGRWDHETIV,"construct, MBP fusion, human SCRIB, PDZ 3-4",automated holdup,"peptide, purified PDZ protein","concentration not given, unit not given","baseline: biotin control resin, higher = stronger binding",binding intensity,0.153
insulin,,LC-MS/MS,"pooled human serum, low level","24 h, 4 °C, stability before sample preparation",baseline: untreated control,bias,-6.4%
adrenomedullin,,RP-HPLC,HALO Phenyl-hexyl column,"25 µM, acetic acid/acetonitrile, 10 min gradient",,retention time,4.62 min
plectin (human),CYB5R4 knockout human cells,"PP4 interaction, 3xFLAG-PP4C IP-MS",,concentration not given,baseline: CYB5R4 KO over parental,log2 fold change,0.78
Teicoplanin,,,QC solution,"6 months, -40 °C, low QC level",,recovery,93.8%
epoetin alfa,UT7/EPO,"RT-qPCR, refers to: CXCL2",,"concentration not given, 90 min, normalized to HPRT1",baseline: vehicle,mRNA level,7 fold
human HUWE1,CYB5R4 knockout human cells,"PP4 interaction, 3xFLAG-PP4C IP-MS",,concentration not given,baseline: CYB5R4 KO over parental,log2 fold change,0.75
"FGA (Homo sapiens, UniProt P02671)","HTR2A (Homo sapiens, UniProt P28223)",cross-linking MS,,together with: DSSO,,cross-linked residues,K100 to K191
Polymyxin B,Klebsiella pneumoniae,,ATCC 43863,concentration not given,,superoxide dismutase activity,0.481 U and 0.58 U and 0.506 U
VVVGAVGVGK,HLA-A*11:01 peptide-β2M single-chain trimer,"western blot, refers to: pMHC-I","peptide, 293T cells","48 h, unit not given, together with: 100 µg/mL cycloheximide",baseline: time zero,remaining protein,0.835 and 0.814 and 0.818
QSARYRDTEL,"construct, MBP fusion, human SCRIB, PDZ 3-4",automated holdup,"peptide, purified PDZ protein","concentration not given, unit not given","baseline: biotin control resin, higher = stronger binding",binding intensity,0.472
Peginesatide,UT7/EPO,"phosphorylation, agonist, refers to: phospho-AKT",,10 min,,EC50,2.23 nM
B3 (human PHGDH),PP6C (human),"co-immunoprecipitation, IP-MS",CYB5R4 knockout cells,concentration not given,baseline: CYB5R4 knockout over parental,log2 fold change,-0.1

# For quick reference, copied from above:
Substance,tested on,test,system,setting,scale,endpoint,value
SVWLRKETRV,"construct, MBP fusion, human SCRIB, PDZ 3-4",automated holdup,"peptide, purified PDZ protein","concentration not given, unit not given","baseline: biotin control resin, higher = stronger binding",binding intensity,0.403
epoetin alfa,UT7/EPO,"RT-qPCR, refers to: CXCL2",,"concentration not given, 90 min, normalized to HPRT1",baseline: vehicle,mRNA level,7 fold
cotadutide,,"metabolomics, refers to: hepatic phenylalanine","ob/ob mice on AMLN diet, NASH model, liver",dose not given,,metabolite level,1.06 ± 0.04 scaled intensity
insulin,,LC-MS/MS,"pooled human serum, low level","24 h, 4 °C, stability before sample preparation",baseline: untreated control,bias,-6.4%
